{"data": "Experimental data of several laboratories", "cell line": "HeLa", "note": "Lines come from different studies, so protocols differ. ± marks the error that the study gave."}
{"Structure (SMILES)": "CC(=O)[O-].Nc1ccc(C([O-])=NN=Cc2ccc(OCC(=O)Nc3ccc(Cl)cc3)cc2)cc1.O.O.O.[Ni+2]", "test": "cytotoxicity, MTT", "conditions": "24 h", "IC50": "24.2 ± 2.2 µg/mL"}
{"Structure (SMILES)": "C[C@H](NC(=O)CCCCCC1(C)C(/C=C/C=C/C=C2/N(CCCS(=O)(=O)O)c3ccc(S(=O)(=O)O)cc3C2(C)C)=[N+](CCCS(=O)(=O)[O-])c2ccc(S(=O)(=O)O)cc21)C(=O)N[C@@H](CC(=O)Nc1ccc(C(F)(F)C(F)(F)C(F)(F)C(F)(F)C(F)(F)C(F)(F)C(F)(F)C(F)(F)C(F)(F)C(F)(F)F)cc1)C(=O)N[C@@H](Cc1ccccc1)C(N)=O (some centres unmarked)", "test": "cytotoxicity", "system": "serum-free DMEM", "conditions": "1 h", "IC50": "34 ± 2 µM"}
{"Structure (SMILES)": "O=C1CCC(N2Cc3c(NC(=O)COCCOCCOCCOCCNCCNc4nonc4/C(=N/O)Nc4ccc(F)c(Br)c4)cccc3C2=O)C(=O)N1 (centres unmarked)", "test": "cytotoxicity, MTT", "conditions": "48 h", "IC50": "> 40 µM"}
{"Structure (SMILES)": "C[C@@]1(CO)CC[C@]2(C(=O)O)CC[C@]3(C)C(=CCC4[C@@]5(C)C[C@@H](O)[C@H](O)[C@@](C)(CO)C5CC[C@]43C)C2C1 (some centres unmarked)", "test": "cell growth or viability, MTT", "conditions": "72 h", "IC50": "> 100 µM"}
{"Structure (SMILES)": "CC(=O)Nc1ccc(-c2csc(Nc3cccc(C(F)(F)F)c3)n2)cc1", "test": "cell growth or viability, resazurin", "conditions": "72 h", "IC50": "8.8 µM"}
{"Structure (SMILES)": "CC1(C(=O)O)CCC2(C(=O)O)CCC3(C)C(=CCC4C5(C)CCC(O)C(C)(C)C5CCC43C)C2C1 (centres unmarked)", "test": "cell growth or viability, MTT", "conditions": "72 h", "IC50": "81.5 µM"}
{"Structure (SMILES)": "CC1=[N+]2N=C(c3ccccc3)[O][Pd-2]2([Cl])[O+]=C2Oc3ccccc3C=C21 (centres unmarked)", "test": "cytotoxicity, MTT", "conditions": "24 h", "IC50": "10.8 ± 0.9 µM"}
{"Structure (SMILES)": "CC(=O)Nc1ccc(-c2csc(NC3CCCCC3)n2)cc1", "test": "cell growth or viability, resazurin", "conditions": "72 h", "IC50": "> 80 µM"}
{"Structure (SMILES)": "NC(=O)c1cc2c3ccccc3ccn2c1-c1ccccc1", "test": "cytotoxicity, flow cytometry propidium iodide", "conditions": "48 h, 10% FBS", "IC50": "0.554 ± 0.087 µM"}
{"Structure (SMILES)": "O=C1CCC(N2C(=O)c3cccc(NCCOCCOCCOCCOCCOCCOCCOCCO)c3C2=O)C(=O)N1 (centres unmarked)", "test": "cytotoxicity, MTT", "conditions": "48 h", "IC50": "> 40 µM"}
{"Structure (SMILES)": "Oc1c(Br)cc(Br)c2nc3cc(C(F)(F)F)ccc3nc12", "test": "cytotoxicity, LDH release", "conditions": "24 h, 10% FBS", "IC50": "> 100 µM"}
{"Structure (SMILES)": "COCCOCCOc1ccc([P+](Cc2ccc(C3=C4C(C)=CC(C)=[N+]4[B-](F)(F)n4c(C)cc(C)c43)cc2)(c2ccc(OCCOCCOC)cc2)c2ccc(OCCOCCOC)cc2)cc1", "test": "cell growth or viability, MTT", "conditions": "24 h", "IC50": "8 µM"}
{"Structure (SMILES)": "CC1(C)[C@@H](O)CC[C@]2(C)[C@H]3CC=C4[C@@H]5C[C@](C)(CO)CC[C@]5(C(=O)O)CC[C@@]4(C)[C@]3(C)CC[C@@H]12", "test": "cell growth or viability, MTT", "conditions": "72 h", "IC50": "> 100 µM"}
{"Structure (SMILES)": "Oc1c(Br)cc(Br)c2nc3cc(Cl)ccc3nc12", "test": "cytotoxicity, LDH release", "conditions": "24 h, 10% FBS", "IC50": "> 100 µM"}
{"Structure (SMILES)": "O=C1CCC(N2Cc3c(NC(=O)COCCOCCNCCNc4nonc4/C(=N/O)Nc4ccc(F)c(Br)c4)cccc3C2=O)C(=O)N1 (centres unmarked)", "test": "cytotoxicity, MTT", "conditions": "48 h", "IC50": "> 40 µM"}
{"Structure (SMILES)": "Oc1c(Br)cc(Br)c2nc3cc(I)ccc3nc12", "test": "cytotoxicity, LDH release", "conditions": "24 h, 10% FBS", "IC50": "> 100 µM"}
{"Structure (SMILES)": "O=C(/C=C/c1ccccc1)Oc1ccc2c(c1)O/C(=C\\C=C\\c1ccccc1)C2=O", "test": "cell growth or viability, MTT", "conditions": "72 h", "IC50": "35 µM"}
{"note": "Some of these lines once more:"}
{"Structure (SMILES)": "CC(=O)Nc1ccc(-c2csc(Nc3cccc(C(F)(F)F)c3)n2)cc1", "test": "cell growth or viability, resazurin", "conditions": "72 h", "IC50": "8.8 µM"}
